Measured values gathered from unrelated publications.
Compare with care: the assays were run in different laboratories. Numbers after ± are the reported error.
Target: Indoleamine 2,3-dioxygenase 1 (IDO1, Homo sapiens, UniProt P14902)
Chain of UniProt P14902 (whole entry, looked up): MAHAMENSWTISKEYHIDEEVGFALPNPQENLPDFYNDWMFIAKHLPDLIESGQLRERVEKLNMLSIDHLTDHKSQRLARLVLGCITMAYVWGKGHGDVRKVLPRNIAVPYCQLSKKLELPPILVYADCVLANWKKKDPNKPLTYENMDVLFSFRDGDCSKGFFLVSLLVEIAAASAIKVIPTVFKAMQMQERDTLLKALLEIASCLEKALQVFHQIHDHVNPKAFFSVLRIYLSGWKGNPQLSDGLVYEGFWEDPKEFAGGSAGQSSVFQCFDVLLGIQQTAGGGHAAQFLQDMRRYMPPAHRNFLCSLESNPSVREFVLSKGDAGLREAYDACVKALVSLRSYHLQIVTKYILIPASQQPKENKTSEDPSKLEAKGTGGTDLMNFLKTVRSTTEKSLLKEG
Mode: inhibitor

effect on	cells	added	IC50	SMILES
kynurenine production	HeLa		7.23 µM	CN1C(=O)CCC(N2C(=O)c3cccc(NCCOCCOCCOCCOCCOCCOCCOCCNCCNc4nonc4/C(=N/O)Nc4ccc(F)c(Br)c4)c3C2=O)C1=O (stereo not drawn)
			262 µM	Cc1sc(Nc2ccccc2)nc1C(=O)O
enzyme activity			2.2 µM	COC1=Cc2c(cc(O)c3cc(C)c(OC)cc23)C(C)(C)C1=O
kynurenine formation			83.8 ± 1.33 µM	CC(=O)c1cc(CO[C@H]2OC[C@H](O[C@@H]3O[C@H](CO)[C@@H](O)[C@H](O)[C@H]3O)[C@@H](O)[C@@H]2O)c2cccc(O[C@@H]3O[C@@H](C)[C@H](O)[C@@H](O)[C@H]3O)c2c1O
enzyme activity		200 µM L-tryptophan	4.09 µM	N=C(N)SCc1ccc(Cl)cc1
kynurenine formation			42.2 ± 1.51 µM	O=C1c2c(O)cccc2[C@@H]([C@@H]2O[C@H](CO)[C@@H](O)[C@H](O)[C@H]2O)c2cc(CO)cc(O)c21
kynurenine production	HeLa		8.16 µM	O=C1CCC(N2Cc3c(NC(=O)COCCOCCOCCNCCNc4nonc4/C(=N/O)Nc4ccc(F)c(Br)c4)cccc3C2=O)C(=O)N1 (stereo not drawn)
enzyme activity		200 µM L-tryptophan	> 30 µM	N=C(N)SCc1cccc(CSC(=N)N)c1
			> 500 µM	Oc1ccc(CCNc2ncnc3[nH]ncc23)cc1
kynurenine formation			43.9 ± 1.95 µM	C[C@@H]1O[C@@H](OCc2cc(O)c3c(c2)[C@H]([C@@H]2O[C@H](CO)[C@@H](O)[C@H](O)[C@H]2O)c2cccc(O)c2C3=O)[C@H](O)[C@H](O)[C@H]1O
kynurenine production	HeLa		5.91 µM	O=C1CCC(N2Cc3c(NC(=O)COCCOCCOCCOCCNCCNc4nonc4/C(=N/O)Nc4ccc(F)c(Br)c4)cccc3C2=O)C(=O)N1 (stereo not drawn)
			43.9 µM	Cc1cc(=O)c(O)c(CN2CCSCC2)n1C

For quick reference, copied from above:
effect on	cells	added	IC50	SMILES
			> 500 µM	Oc1ccc(CCNc2ncnc3[nH]ncc23)cc1
			43.9 µM	Cc1cc(=O)c(O)c(CN2CCSCC2)n1C
